Measurements pooled from the literature.
Each line is one published result; not all experiments were run side by side. “And” joins repeats or separate records; there may be more than shown.

GWTLNSAGYLLGPRRIDHLLMIKEMPIARGREEAPGA / YAVDNHRSFNDKHGFT-NH2 (C-amide)
colon length (healthy male mice; ip, 3 µM): 8.6 cm and 9.1 cm and 8.5 cm and 7.8 cm

insulin human
fold change (refers to: ASS1 mRNA; uninfected mouse, brain; i.p., dose not given; relative to: PBS): 0.979

LILLSLKSTIR
minimal haemolytic concentration (peptide, mouse red blood cells; concentration not given): inactive

heparin sodium
elevated creatine phosphokinase (healthy Chinese adult volunteers; continuous intravenous infusion, 8 IU/kg/h, 5 days): 25%

QAKTFLDKFNHEAEDLFYQ
beta-strand content (circular dichroism; peptide, water/TFE 1:1 v/v; 200 µM, 25 °C): 23.6%

MEASGVNYQNMNKQTT
alpha-helix content (circular dichroism; peptide, water with 5% DMSO; 500 µM, 18 °C): 21%

GIGKFIHAVKKWGKTFIGEIAKS-NH2 (C-amide)
retention time (RP-HPLC; peptide): 18.7 min

YISPQYYGETWVTTIG
alpha-helix content (circular dichroism; peptide, water with 5% DMSO; 500 µM, 18 °C): 10%

Polymyxin B
mortality (mouse; intraperitoneal, 40 mg/kg single dose): 100%

YGRKKRRQRRR / EIDHD (TAT-fused)
retention time in hippocampus (peptide, mouse; intrahippocampal CA1, 0.1 mg/kg): ≤ 14 days

polymyxin B
relative abundance of Escherichia-Shigella (mice infected with Acinetobacter baumannii, caecum and colon contents): 0.00641

Ac-KLALKLALKALKAALKLA-NH2 (N-acetyl, C-amide)
retention time (RP-HPLC; peptide): 24 min

FTMSPPLQMPSKNY
random coil content (circular dichroism; peptide, water with 5% DMSO; 500 µM, 18 °C): 96%

SLIRKTSILLL
minimal haemolytic concentration (peptide, mouse red blood cells; concentration not given): inactive

DPDPE
retention time (RP-HPLC; HALO Peptide ES-C18 column; 25 µM, formic acid/acetonitrile, 10 min gradient): 4.24 min

TLILRLSSKLI
minimal haemolytic concentration (peptide, mouse red blood cells; concentration not given): inactive

Tetramethylrhodamine biocytin
increase in mean fluorescence intensity (mouse JIMT1-BR brain metastasis model, brain micrometastases; intravenous, 10 min; relative to: uninvolved brain): 68.5%

Repeated from above:
GWTLNSAGYLLGPRRIDHLLMIKEMPIARGREEAPGA / YAVDNHRSFNDKHGFT-NH2 (C-amide)
colon length (healthy male mice; ip, 3 µM): 8.6 cm and 9.1 cm and 8.5 cm and 7.8 cm
